Published values from different studies.
Parts stem from different laboratories: compare values within a part only. Positions count from the first letter of the parent shown.

Set 1
Target: CCNB1, cyclin fold, Cln2 fusion (human)
Method: yeast growth competition, sequencing
Sample: yeast
Notes: weak parent motif
Reference: not given
Direction: higher = stronger binding
Starting sequence: SAMHD1 docking peptide (human); ASKSRVQLFKDDP
`ASKSRVQLFKDSP [D12S]`: “normalised enrichment score” 0.204.
For `ASKSRVQVFKDDP [L8V]`, “normalised enrichment score” read 0.0814.
`ASKSRCQLFKDDP [V6C]` — result for “normalised enrichment score”: 0.168.
`ASKSRVQNFKDDP [L8N]` — result for “normalised enrichment score”: 0.296.
`ASKSRVQKFKDDP [L8K]` — result for “normalised enrichment score”: 0.206.
`ASKSRKQLFKDDP [V6K]`: “normalised enrichment score” 0.345.
`ASKSRVQLIKDDP [F9I]`: “normalised enrichment score” 0.65.
Under “normalised enrichment score”, `ASKKRVQLFKDDP [S4K]` is recorded as 0.242.
For `ASKSMVQLFKDDP [R5M]`, “normalised enrichment score” read -0.0933.
`ASKHRVQLFKDDP [S4H]` — result for “normalised enrichment score”: 0.0526.
`ASKSRVQLMKDDP [F9M]`: “normalised enrichment score” 0.524.

Set 2
Target: TATA-box-binding protein 1 (TBP1, Arabidopsis thaliana, UniProt P28147, residues 1-200, full length assumed)
Method: protein-binding microarray
Form: double-stranded DNA, one strand shown
Sample: in vitro
Concentration: not given
Notes: k-mer, scored over probes, only values ≥0.25
Direction: higher = stronger binding
Residues (chain): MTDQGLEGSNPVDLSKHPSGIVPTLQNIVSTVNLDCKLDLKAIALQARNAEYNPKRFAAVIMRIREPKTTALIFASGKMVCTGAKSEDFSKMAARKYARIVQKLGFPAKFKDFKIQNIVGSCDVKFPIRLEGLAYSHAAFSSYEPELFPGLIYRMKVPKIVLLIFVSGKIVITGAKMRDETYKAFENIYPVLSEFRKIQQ
The E-score of `GAATATC` is reported as 0.253.
With `TACCATA` the E-score was 0.29.
The E-score of `TAAAGAA` is reported as 0.293.
For `GAATTTA`, the E-score was 0.347.
The E-score of `AGTAATA` is reported as 0.315.
With `AAATTTC` the E-score was 0.251.
With `AAATAAA` the E-score was 0.419.
For `AAAAAAT`, the E-score was 0.259.
For `ATATTCG`, the E-score was 0.312.
`ATATAGA` has an E-score of 0.406.
With `AATTATC` the E-score was 0.334.
For `ACTTAAG`, the E-score was 0.357.
`TAAAGTA` gave an E-score of 0.286.
`ATAAAGC` has an E-score of 0.341.

Set 3
Target: Interferon regulatory factor 5, full length, phosphomimetic (IRF5, Homo sapiens, UniProt Q13568-2, residues 1-514, K96S/S451D/S453D/S456D/S462D)
Method: protein-binding microarray
Form: double-stranded DNA, one strand shown
Sample: in vitro
Concentration: 250 nM
Notes: 60-bp whole probe
Together with: salmon DNA 0.4 mg/ml
Reference: random background probes
Direction: higher = stronger binding
Constant ends, left off below: GCCTAGCAC … GTCTTGATTCGCTTGACGCTGCTG
The log fluorescence of `GACGGTTTCGGTTTCGGGTCGTGCTAG` is reported as 10.8 z-score.
The log fluorescence of `TCAACTTCGGCCTCTAGGACTGTGCTA` is reported as 0.175 z-score.
The log fluorescence of `AGAAACTTGTGTTTGTCCCTGTGCTAG` is reported as 1.43 z-score.
`TTAGCTTTCGACTATCGGTTAGTGCTA` has a log fluorescence of 9.87 z-score.
`TCAATTCTCTGCTTGCGACTGTGCTAG` gave a log fluorescence of 0.571 z-score.
With `TTAGGTATCGGACAGGGTTAGTGCTAG` the log fluorescence was 1.55 z-score.
For `TTAGGTTTCCATTTCCTTTAGTGCTAG`, the log fluorescence was 1.84 z-score.
For `TTAGGACTGGGGACTGTGTTAGTGCTA`, the log fluorescence was -0.236 z-score.
The log fluorescence of `GTAGGTCTCGGTCTCGGTTAGTGCTAG` is reported as 0.687 z-score.
`TTATATCTCAGTCTCGATTAGTGCTAG` gave a log fluorescence of 1.2 z-score.
With `TTAGGTTTTGGTCTCGGTTAGTGCTAG` the log fluorescence was 3.13 z-score.
For `GTAGGTTCCCTTTTCCTTTAGTGCTAG`, the log fluorescence was 0.379 z-score.
For `TCATTTTTTACTTCGGGACTGTGCTAG`, the log fluorescence was 0.767 z-score.

Other studies, line by line
With `PhoQ, residues 284 288 289 292 302 303 GASLAW` the fold induction was 0.912 (PhoP, residues 12 14 15 18 19 TPLRH (Escherichia coli, UniProt P23836); Sort-seq, item: YFP reporter; E. coli; PhoQ-PhoP variant library, together with: 10 µM Mg2+; reference: high Mg2+ state, higher = stronger signaling).

A few entries again (set 2):
With `TACCATA` the E-score was 0.29.
The E-score of `TAAAGAA` is reported as 0.293.
For `GAATTTA`, the E-score was 0.347.
